Measured values of several laboratories.
Parts stem from different laboratories: compare values within a part only.

Set 1
Target: Max-binding protein MNT, bHLH-zipper, MAX partner unstated (MNT, Homo sapiens, UniProt Q99583, residues 220-300)
Method: protein-binding microarray
Form: double-stranded DNA, one strand shown
Sample: in vitro
Concentration: not given
Notes: k-mer, scored over probes, only values ≥0.25
Reading: higher = stronger binding
Residues (chain): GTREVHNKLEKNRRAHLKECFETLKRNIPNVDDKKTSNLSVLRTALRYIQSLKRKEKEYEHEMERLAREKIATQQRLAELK
Oligonucleotide | E-score
CATGGAAC | 0.299
CCATGCAA | 0.269
CATCGTGG | 0.346
AGCGTGAC | 0.375
GCGTGTCA | 0.422
CCCACCAC | 0.281
CGTGAGCA | 0.292
ACATGGGC | 0.263
CATGGACA | 0.338
CCCACACG | 0.356
CGTGTCAC | 0.43
CATGTTTA | 0.34
CCACATGG | 0.479
ATCCCATG | 0.289
ACCATATG | 0.304
CGCCCCAC | 0.383
AACACGCC | 0.344
CGTGTCTC | 0.366
CGCGCACG | 0.413
CACTCACG | 0.27
CACCCCAG | 0.304
CGTGGACA | 0.38
CGACACGC | 0.372
ATGCAGCC | 0.279
ACGCGATA | 0.289

Set 2
Target: Sal-like protein 4, full length isoform B (SALL4, Homo sapiens, UniProt Q9UJQ4-2, residues 1-616)
Method: universal PBM
Form: double-stranded DNA, one strand shown
Sample: in vitro
Concentration: not given
Notes: 8-mer, flanks averaged, mean of replicates
Reading: higher = stronger binding
Residues (chain): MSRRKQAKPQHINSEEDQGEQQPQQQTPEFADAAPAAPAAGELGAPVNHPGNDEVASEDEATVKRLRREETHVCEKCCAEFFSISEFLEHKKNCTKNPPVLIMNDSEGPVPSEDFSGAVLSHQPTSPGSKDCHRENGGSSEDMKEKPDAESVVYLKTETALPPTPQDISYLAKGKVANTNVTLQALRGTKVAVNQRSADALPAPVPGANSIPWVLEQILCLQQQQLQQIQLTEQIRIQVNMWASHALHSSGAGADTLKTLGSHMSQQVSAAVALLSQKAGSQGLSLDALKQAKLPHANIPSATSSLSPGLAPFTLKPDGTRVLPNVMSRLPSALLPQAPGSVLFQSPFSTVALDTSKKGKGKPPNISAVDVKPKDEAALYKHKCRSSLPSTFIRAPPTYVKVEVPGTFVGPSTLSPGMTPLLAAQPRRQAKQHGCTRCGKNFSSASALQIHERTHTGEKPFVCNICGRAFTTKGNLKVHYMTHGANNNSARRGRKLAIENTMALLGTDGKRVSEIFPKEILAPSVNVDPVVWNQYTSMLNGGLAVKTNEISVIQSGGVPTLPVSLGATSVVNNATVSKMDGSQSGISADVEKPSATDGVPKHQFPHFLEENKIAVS
Oligonucleotide | E-score
ACCGACAA | -0.0951
CTGCACCC | -0.274
ACGTTTAA | 0.255
CGCTGCGC | -0.309
ATTGTGGG | 0.0308
AACGAATC | 0.137
AGCTCGTA | -0.0129
ATGGACAG | 0.0423
ATTGGCCC | -0.111
AAAGCTTC | -0.0232
ACACGGAC | -0.0155
CAGGGCGA | -0.284
CCTGATTC | -0.112
CATAGCTC | -0.175
ATTTGCCC | -0.0212
ACATCAAA | 0.183
CTTGCCTA | 0.00532
ACAATACA | 0.198

Set 3
Target: Interferon regulatory factor 3, full length, phosphomimetic (IRF3, Homo sapiens, UniProt Q14653, residues 1-427, S386D/S396D/S398D/S402D/T404D/S405D)
Method: protein-binding microarray
Form: double-stranded DNA, one strand shown
Sample: in vitro
Concentration: 2540 nM top
Notes: 60-bp whole probe
With: salmon DNA 0.4 mg/ml
Baseline: random background probes
Reading: higher = stronger binding
Constant ends, left off below: GCCTAGCAC … GTCTTGATTCGCTTGACGCTGCTG
Target sequence (chain): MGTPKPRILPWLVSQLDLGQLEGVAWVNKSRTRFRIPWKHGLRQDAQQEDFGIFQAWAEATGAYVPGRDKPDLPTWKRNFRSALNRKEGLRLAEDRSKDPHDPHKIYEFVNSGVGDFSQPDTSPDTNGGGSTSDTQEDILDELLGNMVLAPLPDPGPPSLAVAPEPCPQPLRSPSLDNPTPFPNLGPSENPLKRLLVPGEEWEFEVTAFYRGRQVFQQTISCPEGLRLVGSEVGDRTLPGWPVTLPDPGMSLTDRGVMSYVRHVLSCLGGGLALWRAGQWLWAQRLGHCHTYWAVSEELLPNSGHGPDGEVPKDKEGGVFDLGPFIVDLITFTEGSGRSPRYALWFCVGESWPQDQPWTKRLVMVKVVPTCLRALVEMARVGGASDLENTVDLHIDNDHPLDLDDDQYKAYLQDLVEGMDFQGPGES
Oligonucleotide | fitted relative affinity
TCAAAACTCGTATGTGACACTGTGCTA | -0.231 z-score
TCATTTATGTACTCTCTAACTGTGCTA | 1.05 z-score
GACGGACTGGACCTTCGGGACGTGCTA | -0.604 z-score
TTAGGTCTCCTTATCGTTTAGTGCTAG | 3.01 z-score
TTAGATCTCAGACTGCATTAGTGCTAG | -0.128 z-score
GTAGATATCAGACTGGATTAGTGCTAG | 0.133 z-score
TCATGTCTCTGGCCTGGGACTGTGCTA | -0.54 z-score
TTAGGTTTTGGTTTCGGTTAGTGCTAG | 7.98 z-score
TTAGGTATCGACATTCGGTTAGTGCTA | 0.752 z-score
TCATTTTTCTGCTTAGAACTGTGCTAG | 1.76 z-score
TCATAACTCATTCTCTGACTGTGCTAG | 1.38 z-score
TTAGAACTGGGGTTTCGATTTGTGCTA | 2.47 z-score
TCACCTCTCTCTTTCCAACTGTGCTAG | 1.73 z-score
TTAGCTTTCGGTTTCGGTTAGTGCTAG | 9.03 z-score
GACGGTATCGGACTGGGGAGGTGCTAG | 1.41 z-score
GAGGGTTTCGGTATCGGGACGTGCTAG | 6.98 z-score
GACGGTATCGGTATCGGGTCGTGCTAG | 5.08 z-score
GACGGTATGGGGACTGGGGACGTGCTA | -0.398 z-score

Set 4
Target: Histone acetyltransferase KAT6A, both winged helices, GST fusion (KAT6A, Homo sapiens, UniProt Q92794, residues 1-181)
Method: protein binding microarray
Form: double-stranded DNA, one strand shown
Sample: in vitro
Concentration: not given
Notes: 8-mer, flanks averaged, mean of 2 arrays, mostly near background
Baseline: not given
Reading: higher = stronger binding
Residues (chain): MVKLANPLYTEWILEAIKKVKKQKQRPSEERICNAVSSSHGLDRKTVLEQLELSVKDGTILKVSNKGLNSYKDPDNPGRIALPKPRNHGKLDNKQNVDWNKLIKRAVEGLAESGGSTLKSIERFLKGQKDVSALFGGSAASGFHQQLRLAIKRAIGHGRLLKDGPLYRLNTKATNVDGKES
Oligonucleotide | E-score
GTACGCAC | 0.188
AAAACAAC | -0.179
CGTGCCCA | 0.027
AGATCTTC | 0.0173
CGGAGCGA | 0.213
ACGTAAAC | 0.0289
GTTGTGGA | -0.107
ACGCATGC | 0.191
CGCCCATC | 0.0476
AAAGGGTA | -0.0865
AATCCCTC | -0.0793
GACATTGA | 0.047
CTGCTGAC | -0.0454
GACTTCAA | -0.112
CACAACGC | 0.127
CGTGTCCC | 0.122
AAGAGCCT | -0.106
ACAGCATC | -0.156
GGTGCAGA | -0.0803
ACATCGCT | 0.0683
GGCTCCTA | -0.0782
ACATACGC | 0.209

A few entries again (set 4):
Oligonucleotide | E-score
CGCCCATC | 0.0476
AAAGGGTA | -0.0865
AATCCCTC | -0.0793
GACATTGA | 0.047
